Measured values pooled from the literature.
Compare with care: the assays were run in different laboratories. Values joined by “and” are separate records of one study, mostly repeats; a detail may differ.
Target: MAP kinase-activated protein kinase 3 (MAPKAPK3, Homo sapiens, UniProt Q16644)
Chain of UniProt Q16644 (whole entry, looked up): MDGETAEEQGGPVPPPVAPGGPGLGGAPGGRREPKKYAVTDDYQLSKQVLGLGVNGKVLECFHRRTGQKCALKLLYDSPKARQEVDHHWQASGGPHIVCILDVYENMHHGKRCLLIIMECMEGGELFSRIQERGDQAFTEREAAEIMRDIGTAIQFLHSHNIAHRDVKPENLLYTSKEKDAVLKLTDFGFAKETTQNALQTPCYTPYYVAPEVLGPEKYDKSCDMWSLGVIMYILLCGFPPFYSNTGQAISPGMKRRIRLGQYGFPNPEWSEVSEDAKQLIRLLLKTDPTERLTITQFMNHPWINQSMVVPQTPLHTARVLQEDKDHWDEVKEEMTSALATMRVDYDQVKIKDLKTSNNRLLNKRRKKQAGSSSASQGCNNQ

| SMILES | test | test system | conditions | scale | quantity | result |
| --- | --- | --- | --- | --- | --- | --- |
| Nc1ncc(-c2cc(-c3cnn(CC(F)(F)F)c3)ncc2F)nc1C(=O)NC1CNCC(F)C1 (centres unmarked) | enzyme activity |  | 1 µM | reference: DMSO control | remaining activity | 103% |
| O=C(Cc1ccc(OCc2ccccc2)cc1)NC1(C(=O)O)CCN(C(=O)c2ccc(-c3cccc(Cl)c3)cc2)CC1 | enzyme activity, inhibitor |  | 10 µM |  | activity vs control | 108% |
| CCn1cc(C(=O)O)c(=O)c2c(N)c(F)c(NC3CCCCC3)cc21 | kinase activity |  | 0.1 µM, added: ATP at Km |  | inhibition | -11.1% |
| Cc1cccc(O[C@H]2CCC[C@@H](C(C)CNCc3ccncc3)C2)c1 (relative stereo) | enzyme activity, inhibitor |  | 1 µM |  | inhibition | 0% |
| O=C=[N][Ru-4]123([n]4c5ccc(O)cc5c5c6c(c7cc(F)c[n+]1c7c54)C(=O)NC6=O)[S+]1CC[S+]2CC[S+]3CC1 (centres unmarked) | enzyme activity |  | 100 nM, human enzyme, added: 10 µM ATP | reference: untreated | remaining activity | 105% |
| NC(=O)[C@@H](O)C[C@H]1CCc2sc3ncnc(O[C@H]4CC[C@H](N5CCOCC5)CC4)c3c21 | enzyme activity, inhibitor |  | 10 µM |  | inhibition | 7% |
| CNC(=O)C[C@H](Cc1ccc(C#N)cc1)NC(=O)c1cc(-c2ccc(CN[C@H](C)c3ccc(C)cc3)o2)ccc1Cl | enzyme activity, inhibitor |  | 1 µM |  | activity vs control | 108% |
| NC(=O)C[C@H]1CCc2sc3ncnc(O[C@H]4CC[C@H](N5CCOCC5)CC4)c3c21 | enzyme activity, inhibitor |  | 10 µM |  | inhibition | 2% |
| COCC12C(=O)NC3C4(C(OC)CC1O)C1CC5(O)C(OC)C(O)C(OC(C)=O)(C1C5OC(=O)c1ccccc1)C3(O)C(OC)C24 (centres unmarked) | kinase activity, inhibitor, ProQinase kinase profiling |  | 25 µM | reference: control | remaining activity | 110% and 112% |
| CN1CCN(Cc2ccc(-c3ccc(CO[C@H]4CCC[C@@H]4NC(=O)c4cc(-c5cnn(C)c5)cnc4N)cc3)cc2)CC1 | enzyme activity, inhibitor |  | 0.1 µM |  | inhibition | 8% |
| CS(=O)(=O)Nc1cccc(-c2csc3cnc(Nc4ccc(N5CCN(CCCCCOc6cccc7c6C(=O)N(C6CCC(=O)NC6=O)C7=O)CC5)cc4)nc23)c1 (centres unmarked) | probe labelling, inhibitor, KiNativ chemoproteomics | MOLT-4 | 1 µM |  | inhibition | -9.4% |
| COc1c(OCCCN2CCOCC2)ccc2c1N=C(NC(=O)c1cnc(N)nc1)N1CCN=C21 | kinase activity, inhibitor |  | 1 µM | reference: untreated control | remaining activity | 97% |
| C=CC(=O)Nc1cccc(-c2cnc3[nH]cc(C(=O)NC(C)(C)C)c3n2)c1 | kinase activity |  | 0.1 µM |  | inhibition | -1% and 4% |
| Cc1nc2c(F)cc(-c3nc(Nc4ccc(CNC(=O)CCCCCCC(=O)NO)cc4)ncc3F)cc2n1C(C)C | enzyme activity, inhibitor |  | 1 µM |  | inhibition | 14% |
| CN1CC[C@@H](COc2cnc(C#N)cc2-c2ccn3nc(NC(=O)C4CC4)cc3c2)C1 | enzyme activity, inhibitor |  | 1 µM |  | inhibition | -20% |
| C=CC(=O)Nc1cc(-c2nn(C3CCN(CCNC(=O)[C@H](C)CCC45CC6CC(CC(C6)C4)C5)CC3)c3ncnc(N)c23)ccc1Oc1ccccc1 | inhibitor, KiNativ profiling | biochemical | 2 µM |  | inhibition | 18.2% |
| COc1ccc(NC(=O)Nc2ccc3c(c2)C(=O)N(C(C)CO)CC(C)C(CN(C)Cc2ccc4c(c2)OCO4)O3)cc1 (centres unmarked) | kinase activity, KinaseProfiler |  | 0.03 µM, species human | reference: control | remaining activity | 107% |

Some of these lines once more:
| SMILES | test | test system | conditions | scale | quantity | result |
| --- | --- | --- | --- | --- | --- | --- |
| CS(=O)(=O)Nc1cccc(-c2csc3cnc(Nc4ccc(N5CCN(CCCCCOc6cccc7c6C(=O)N(C6CCC(=O)NC6=O)C7=O)CC5)cc4)nc23)c1 (centres unmarked) | probe labelling, inhibitor, KiNativ chemoproteomics | MOLT-4 | 1 µM |  | inhibition | -9.4% |
| COc1c(OCCCN2CCOCC2)ccc2c1N=C(NC(=O)c1cnc(N)nc1)N1CCN=C21 | kinase activity, inhibitor |  | 1 µM | reference: untreated control | remaining activity | 97% |
